Results collected from several papers.
Parts stem from different laboratories: compare values within a part only. Substitutions count along the parent as printed.

Study 1
Target: RNA binding protein fox-1 homolog 2, RRM domain, GST-SBP tag (RBFOX2, Homo sapiens, UniProt O43251-10, residues 100-194)
Method: RNA Bind-n-Seq
Form: RNA
Sample: in vitro
Concentration: 365 nM
Notes: natural RNA segment, single round, ends assumed
Baseline: no-protein control
Reading: higher = stronger binding
Measurement: RBNS enrichment (R)
All sequences stand within: GGGAGUUCUACAGUCCGACGAUC … UGGAAUUCUCGGGUGCCAA
Construct (chain): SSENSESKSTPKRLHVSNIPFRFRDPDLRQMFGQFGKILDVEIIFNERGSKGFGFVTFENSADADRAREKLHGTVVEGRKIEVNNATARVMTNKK
UGAGGGUUCCCAGGUUAUGUGGCACCUGCGGAAACCAUGUCUAGAGUCGUUUCUAUGUAGCUUGGCAGAGCCCACUGAUGGCUGCAGGUGUGUAGCCUACUGACAGCUUU: 0.674
UGCCAUCUCCCUGCCAGCACCCCUUGAGUGUCCACAUCCAGGGACCGAGCCUGGCACAGCUCCCCUAUCCAUUGCCAGAUGAAUGUAUAAUGCUAGAUGAAGCUGUGAAC: 0.387
UCCUUAGCGCAUUAAUGUGAUGCUCACUCUGUGUUAAAACUGCAGCCGUUGUCUUUCUCAACUGCUACUGUCACGUUGCUUUCAAGAAAACAUUUUUUUUCAUUCCAGAC: 0.477
UACCUGAAGCCAAAGCCAUUGCUAGCCUUACCCCUGUGAAGGAGACAUUGGAUUCCCCAGUGAGAUCAUCUAGAAACCAUCUAAAUAAACCACUCUAUAUUUUAUGAAUU: 0.465
CAGUGGGGAUUUCUUAGAACAGGAGAGAGGAAUCCAUGAAGCAGGAGAAGCAGUGCCUGCCAGCUGUGGUGGACCUUCCUAAGAAAUAAAUAUCCUUUAUGUUUUCAAAC: 0.979
CAUGAUUUGGCUCUCUGUUUGUCUGUUGUUGGUGUAUAAGAAUGCUUGUGAUUUUUGUACAUUGAUUUUGUAUCCUGAGACUUUGCUGAAGUUGCUUAUCAGCUUAAGGA: 0.812
GGUUUCUCAAAGGCAAUCCAGCUUUCACAAAGGAAGCCCAUGGGAAGGCAGGUGGGAGGGAAAGGAAGGGGCACAGCCCUAUUUCUUCCUACCUGCUAGGACAAGGUGGA: 0.348
CAAGGAGUAUUAUGUUAAACAUAACACCACCAGUCGUAUGCGAACUUAAAACAGAAUUAUUUCUAUACACACACCUGAAUACUUUGACAAUGAGAUUUAACUUGUUGAAU: 0.213
UUCCCAGCAAAAGGCUCCAGCUGGAGGGAUGGGUUGUGGGGCAACCUGGUUCCUGCUAACUGCCAGAUUGAAUGUGUGGGCUAGAAUGCCUGCACAUUUAGUUAAACUGG: 0.25
AGUAACCACCUAUUUAUUUUACCUCUUUCCCAAACCUGGAGCAUUUAUGCCUAGGCUUGUCAAGAAUCUGUUCAGUCCCUCUCCUUCUCAAUAAAAGCAUCUUCAAGCUU: 1.12
UGGGUUUGUUGUUUAACCUUAGCGAGAUCCUUUAACUGCAGCAAUAUUCAAGCCAGAUAUUUGGAAGCAAAUGAUAUUUCCUCUUGCAGUGUCCACAAAUCUGAAUAUUA: 0.678
AAAGUGGCUCCAGGGACUUAAGUGAAGUUCACUACUCUUAUCAGCAGUGCUGGAGAGCGGAGGAUUGGGGGCGGGGAUUCAGACUUUCUGGGUUCACAUCUGUGUUUUGC: 0.58

Study 2
Target: ABI1, truncated, D143A, DHFR fusion (Arabidopsis thaliana)
Method: DHFR PCA, deep sequencing
Sample: yeast
Notes: methotrexate growth selection, single substitutions
With: (+)-ABA 1.4 µM
Baseline: wild-type fitted maximum
Reading: higher = stronger binding
Measurement: relative binding score
Starting sequence: PYL1, truncated, DHFR fusion (Arabidopsis thaliana); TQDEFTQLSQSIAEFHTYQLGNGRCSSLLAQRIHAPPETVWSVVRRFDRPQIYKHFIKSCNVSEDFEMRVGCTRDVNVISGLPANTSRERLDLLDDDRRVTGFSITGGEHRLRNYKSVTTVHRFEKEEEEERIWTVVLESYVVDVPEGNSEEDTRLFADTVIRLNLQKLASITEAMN
Q167V: 28.6%
L29V: 63.1%
D96H: 5.79%
D153A: -9.87%
E152I: 10.5%
R88Y: 46.8%
R98F: 4.66%
S27R: 22.4%
I57Y: -7.04%
Y141F: -3.12%
T173E: -13.2%
R163M: 29.9%
T106H: 17.2%
Q51D: 42%
A158G: -2.73%
V136F: 27.4%
N22M: 54.4%
D97M: 36.4%
H110R: 8.45%
L164F: 40.6%

Study 3
Target: Interferon regulatory factor 7, full length, phosphomimetic (IRF7, Homo sapiens, UniProt Q92985, residues 1-503, S101K/S471D/S472D/S475D/S476D/S477D/S483D/S484D/S487D)
Method: protein-binding microarray
Form: double-stranded DNA, one strand shown
Sample: in vitro
Concentration: 250 nM
Notes: 60-bp whole probe
With: salmon DNA 0.4 mg/ml
Baseline: random background probes
Reading: higher = stronger binding
Measurement: log fluorescence
All sequences stand within: GCCTAGCAC … GTCTTGATTCGCTTGACGCTGCTG
Construct (chain): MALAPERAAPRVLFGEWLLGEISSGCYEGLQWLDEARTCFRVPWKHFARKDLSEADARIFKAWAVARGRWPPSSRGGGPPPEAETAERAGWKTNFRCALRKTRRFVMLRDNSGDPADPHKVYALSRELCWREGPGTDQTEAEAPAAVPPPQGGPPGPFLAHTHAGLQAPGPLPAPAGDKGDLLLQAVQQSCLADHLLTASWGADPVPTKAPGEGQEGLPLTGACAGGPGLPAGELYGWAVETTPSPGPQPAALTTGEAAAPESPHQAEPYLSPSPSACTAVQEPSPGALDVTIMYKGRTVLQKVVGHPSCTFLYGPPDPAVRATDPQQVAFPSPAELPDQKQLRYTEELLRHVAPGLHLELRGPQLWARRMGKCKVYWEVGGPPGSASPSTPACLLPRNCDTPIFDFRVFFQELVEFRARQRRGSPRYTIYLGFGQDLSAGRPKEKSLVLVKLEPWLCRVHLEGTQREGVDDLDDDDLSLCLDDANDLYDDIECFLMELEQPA
TTAGGTTTCCTTTTCCCTTAGTGCTAG: 6.55 z-score
TCATTTTCAATTTTTGCACTGTGCTAG: 1.63 z-score
GACGGTATCGACTTGCGGGACGTGCTA: 1.81 z-score
TTAGATATCGGGACTGGATTCGTGCTA: 0.219 z-score
ATAGATATCAGACTGGATTAGTGCTAG: -0.0897 z-score
AACGGTTTCCTTTCCCTGACGTGCTAG: 5.08 z-score
ATAACACTCTTCTTTTGCTAAGTGCTA: 0.595 z-score
GCCGATCTCAGACTGGAGACGTGCTAG: -0.257 z-score
GACGGGTCCGGTTTCGGGACGTGCTAG: 4.42 z-score
GACGGGCTCGGTATCGGGACGTGCTAG: 0.652 z-score
TTAGGTGTCGGTTCCGGTTAGTGCTAG: 1.54 z-score
GGGCCGAGGCTGTGGCCACCGTGCTAG: -0.786 z-score
ATAGGTTTCGGTTTCGGTTAGTGCTAG: 15.5 z-score
TTAGAACTCAGTATCGATTAGTGCTAG: 0.751 z-score
TTACATATCGGGTATCGATTAGTGCTA: 1.03 z-score
GACGAACTGAGACTAGAGACGTGCTAG: 0.241 z-score
TTAGGTATCGGACTCGGTTAGTGCTAG: 1.37 z-score
TCAGGACTGCTACTGCTTTAGTGCTAG: -0.744 z-score
GACGGTCTACTACTGCTGACGTGCTAG: -0.381 z-score
TTATGACTGCTTATCCTTTAGTGCTAG: -0.235 z-score

Study 4
Target: Sal-like protein 4, full length isoform B (SALL4, Homo sapiens, UniProt Q9UJQ4-2, residues 1-616)
Method: universal PBM
Form: double-stranded DNA, one strand shown
Sample: in vitro
Concentration: not given
Notes: 8-mer, flanks averaged, mean of replicates
Reading: higher = stronger binding
Measurement: E-score
Residues (chain): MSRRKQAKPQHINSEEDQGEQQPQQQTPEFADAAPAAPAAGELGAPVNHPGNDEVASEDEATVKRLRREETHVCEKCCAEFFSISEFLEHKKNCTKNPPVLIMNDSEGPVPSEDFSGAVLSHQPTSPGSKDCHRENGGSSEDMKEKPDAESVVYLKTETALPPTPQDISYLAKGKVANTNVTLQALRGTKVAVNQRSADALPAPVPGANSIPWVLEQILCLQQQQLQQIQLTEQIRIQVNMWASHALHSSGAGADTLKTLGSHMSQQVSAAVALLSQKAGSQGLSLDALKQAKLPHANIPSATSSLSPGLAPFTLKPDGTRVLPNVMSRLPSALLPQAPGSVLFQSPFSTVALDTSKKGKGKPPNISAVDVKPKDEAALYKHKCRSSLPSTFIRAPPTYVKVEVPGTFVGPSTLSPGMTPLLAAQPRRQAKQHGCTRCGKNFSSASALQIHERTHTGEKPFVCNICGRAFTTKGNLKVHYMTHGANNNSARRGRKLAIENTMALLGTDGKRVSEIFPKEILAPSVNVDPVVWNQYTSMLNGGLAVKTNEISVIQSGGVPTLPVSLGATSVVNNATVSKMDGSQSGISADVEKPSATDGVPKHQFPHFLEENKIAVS
TAAGACAA: 0.229
GAGAGGCC: -0.241
AATGAGTG: 0.197
CTATCGTA: 0.208
GCCTCATA: 0.147
AGCCGGAA: -0.185
AAATTTCA: 0.213
AGTATAAG: 0.275
GAGCGAGC: -0.132
ACTGCTTC: -0.19
TTGTAAAA: 0.199
CGAGTGGA: 0.018
ACCTCGTC: -0.0732
ACCGATAT: 0.142
AATCGTGG: 0.133
CTGTTTCC: 0.114
GCGAACGC: -0.137
ATAGCGGC: -0.158
ACGGCATC: -0.117
CGGTTGCC: -0.284
ACGGCAAA: -0.0316
AAGACAAG: 0.148

Study 5
Target: Histone acetyltransferase KAT6A, winged helix 2, GST fusion (KAT6A, Homo sapiens, UniProt Q92794, residues 85-181)
Method: protein binding microarray
Form: double-stranded DNA, one strand shown
Sample: in vitro
Concentration: not given
Notes: 8-mer, flanks averaged, mean of 2 arrays, mostly near background
Baseline: not given
Reading: higher = stronger binding
Measurement: E-score
Construct (chain): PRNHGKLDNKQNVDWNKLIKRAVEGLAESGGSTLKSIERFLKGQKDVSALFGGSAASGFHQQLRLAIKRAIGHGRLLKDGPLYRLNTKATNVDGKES
AATGAGCG: 0.0798
ACGTGGTG: -0.205
CATGTCAC: -0.117
GAACACCA: 0.0111
GAGAAGGA: -0.129
AATCTCTA: -0.151
AAAGGTAG: -0.108
CCGGCAAC: 0.0131
ATGATGAG: -0.000605
ACGGTTGC: -0.184
GATCTAAA: 0.1
GCCACTCA: 0.0441
GCTCCAGC: 0.185
AACGAGAA: -0.0398
AGAGTCAA: -0.171
ATCTAATG: -0.0268
CTCGAATA: -0.148
CGCGATAG: 0.0823

Study 6
Target: Prothrombin, mature alpha-thrombin (F2, Homo sapiens, UniProt P00734)
Method: aptamer microarray, sandwich
Form: DNA with 2'F-ANA
Sample: in vitro
Concentration: 200 nM
Notes: whole 15-mer aptamer, many near background
With: Cy3 exosite-II aptamer, 400 nM
Reading: higher = stronger binding
Measurement: mean fluorescence intensity
Sequence: GGTTGGTGTGGTTGG
2'F-ANA at 2 3 4 6 7 9 12 13 14: 227 a.u.
2'F-ANA at 4 5 6 8 9 11 13 15: 80.7 a.u.
2'F-ANA at 4 5 6 7 9 10 11 12 14 15: 46.7 a.u.
2'F-ANA at 4 6 7 9 11 13 14: 66.5 a.u.
2'F-ANA at 1 8 9 13 14: 54.4 a.u.
2'F-ANA at 3 7 8 9 12 14: 793 a.u.
2'F-ANA at 3 4 5 7 10 11: 51.7 a.u.
2'F-ANA at 3 4 8 11 13 14 15: 381 a.u.
2'F-ANA at 3 4 5 6 9 12 13 15: 99.8 a.u.
2'F-ANA at 1 4 6 7 9 11: 87.5 a.u.
2'F-ANA at 1 4 15: 159 a.u.
2'F-ANA at 1 2 5 7 12 15: 127 a.u.
2'F-ANA at 3 7 8 10 11 12 13 15: 613 a.u.
2'F-ANA at 2 4 9 12 13 14: 114 a.u.
2'F-ANA at 1 2 3 8 10 12 15: 162 a.u.
2'F-ANA at 1 2 3 5 10 11 12: 50 a.u.
2'F-ANA at 4 6 11 12 13: 318 a.u.
2'F-ANA at 1 2 4 5 9 10 12 13 14 15: 54 a.u.
2'F-ANA at 4 6 7 8 10 11 14: 76 a.u.
2'F-ANA at 1 2 3 8 11 12 15: 418 a.u.
2'F-ANA at 2 3 4 5 9 10 11 13 15: 53.4 a.u.
2'F-ANA at 2 3 4 5 12 13: 146 a.u.
2'F-ANA at 1 3 5 6 11 13: 51.5 a.u.
2'F-ANA at 1 3 4 6 8 11 12 13 14 15: 72.6 a.u.
2'F-ANA at 2 4 5 7 8 9 13 15: 84.2 a.u.

A few entries again (study 4):
CGGTTGCC: -0.284
GAGCGAGC: -0.132
TAAGACAA: 0.229
CGAGTGGA: 0.018
CTATCGTA: 0.208
ACGGCATC: -0.117
TTGTAAAA: 0.199
AATGAGTG: 0.197
ACCTCGTC: -0.0732
ACCGATAT: 0.142
AAGACAAG: 0.148
GAGAGGCC: -0.241
AGTATAAG: 0.275
AAATTTCA: 0.213
